Measurements pooled from the literature.
A part holds a random share of what one study measured.
Sequence of UniProt P06493 (whole entry, looked up): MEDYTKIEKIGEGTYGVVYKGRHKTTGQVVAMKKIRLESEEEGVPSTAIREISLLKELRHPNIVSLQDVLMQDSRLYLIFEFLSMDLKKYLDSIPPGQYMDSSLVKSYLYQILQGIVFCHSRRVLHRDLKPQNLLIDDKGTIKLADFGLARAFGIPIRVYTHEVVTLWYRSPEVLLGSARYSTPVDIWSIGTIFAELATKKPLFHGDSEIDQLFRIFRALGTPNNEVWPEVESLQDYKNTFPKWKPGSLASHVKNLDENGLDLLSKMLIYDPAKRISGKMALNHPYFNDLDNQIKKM
Sequence of UniProt P47898 (whole entry, looked up): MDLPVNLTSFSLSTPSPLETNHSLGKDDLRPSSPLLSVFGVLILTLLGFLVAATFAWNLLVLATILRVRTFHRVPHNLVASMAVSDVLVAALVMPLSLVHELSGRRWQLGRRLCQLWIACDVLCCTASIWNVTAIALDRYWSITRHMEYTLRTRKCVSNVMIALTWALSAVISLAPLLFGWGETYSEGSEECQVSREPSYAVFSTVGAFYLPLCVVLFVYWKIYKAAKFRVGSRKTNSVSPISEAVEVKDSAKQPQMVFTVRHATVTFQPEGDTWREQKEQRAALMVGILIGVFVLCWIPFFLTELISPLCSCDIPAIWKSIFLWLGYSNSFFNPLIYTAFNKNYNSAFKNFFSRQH
Sequence of UniProt Q9H4B4 (whole entry, looked up): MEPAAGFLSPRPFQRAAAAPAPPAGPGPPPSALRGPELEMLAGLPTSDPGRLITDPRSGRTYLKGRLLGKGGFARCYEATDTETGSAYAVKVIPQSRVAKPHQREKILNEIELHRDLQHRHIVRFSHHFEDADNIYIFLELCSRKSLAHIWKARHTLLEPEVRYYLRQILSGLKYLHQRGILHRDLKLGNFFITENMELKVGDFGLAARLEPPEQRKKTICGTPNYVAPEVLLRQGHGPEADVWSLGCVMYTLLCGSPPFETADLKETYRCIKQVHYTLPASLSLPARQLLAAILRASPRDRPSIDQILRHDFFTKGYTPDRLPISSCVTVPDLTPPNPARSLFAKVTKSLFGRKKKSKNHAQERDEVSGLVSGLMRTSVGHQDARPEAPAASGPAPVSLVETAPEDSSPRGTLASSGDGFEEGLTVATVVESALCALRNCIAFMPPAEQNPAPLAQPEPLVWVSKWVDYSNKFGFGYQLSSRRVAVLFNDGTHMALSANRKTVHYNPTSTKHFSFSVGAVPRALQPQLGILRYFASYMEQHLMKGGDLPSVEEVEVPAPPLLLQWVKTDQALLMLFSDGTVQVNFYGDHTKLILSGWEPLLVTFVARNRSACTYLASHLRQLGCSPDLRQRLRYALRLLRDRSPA
Sequence of UniProt P31751 (whole entry, looked up): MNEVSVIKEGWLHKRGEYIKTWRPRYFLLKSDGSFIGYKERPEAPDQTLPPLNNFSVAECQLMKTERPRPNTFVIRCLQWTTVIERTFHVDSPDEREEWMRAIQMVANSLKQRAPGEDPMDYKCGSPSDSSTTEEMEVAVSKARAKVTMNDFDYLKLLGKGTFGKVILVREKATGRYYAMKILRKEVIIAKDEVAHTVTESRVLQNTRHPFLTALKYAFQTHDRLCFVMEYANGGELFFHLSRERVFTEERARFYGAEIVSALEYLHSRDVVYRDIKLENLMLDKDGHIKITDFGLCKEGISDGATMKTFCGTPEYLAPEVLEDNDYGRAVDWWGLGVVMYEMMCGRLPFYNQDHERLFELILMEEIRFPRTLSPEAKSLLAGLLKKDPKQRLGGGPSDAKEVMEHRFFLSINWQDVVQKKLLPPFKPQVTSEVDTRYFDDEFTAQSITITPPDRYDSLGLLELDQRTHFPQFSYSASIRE

Set 1 — method: protein-binding microarray; molecule type: double-stranded DNA, one strand shown; matrix: in vitro; tested at: 2540 nM top; notes: 60-bp whole probe; with: salmon DNA 0.4 mg/ml; relative to: random background probes; reading: higher = stronger binding; shared flanks, not repeated: GCCTAGCAC … GTCTTGATTCGCTTGACGCTGCTG
Target: Interferon regulatory factor 3, full length, phosphomimetic (IRF3, Homo sapiens, UniProt Q14653, residues 1-427, S386D/S396D/S398D/S402D/T404D/S405D)
Construct (chain): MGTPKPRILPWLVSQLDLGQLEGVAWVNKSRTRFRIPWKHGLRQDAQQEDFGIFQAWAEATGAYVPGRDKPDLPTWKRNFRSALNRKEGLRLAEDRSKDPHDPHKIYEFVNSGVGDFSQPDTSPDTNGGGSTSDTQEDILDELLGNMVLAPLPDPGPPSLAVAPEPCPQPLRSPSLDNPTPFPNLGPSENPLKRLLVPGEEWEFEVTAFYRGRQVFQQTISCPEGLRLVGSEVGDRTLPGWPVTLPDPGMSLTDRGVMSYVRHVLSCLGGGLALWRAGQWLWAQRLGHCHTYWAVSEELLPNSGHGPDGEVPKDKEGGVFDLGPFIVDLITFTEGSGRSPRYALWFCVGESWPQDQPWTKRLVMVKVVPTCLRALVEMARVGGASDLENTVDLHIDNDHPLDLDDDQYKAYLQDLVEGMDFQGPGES
Under “fitted relative affinity”, `TTAGGTTCCGGTCTCGGTTAGTGCTAG` is recorded as 4.51 z-score.
`TTAGGTTTCCTACTGCTTTTGTGCTAG` — result for “fitted relative affinity”: 4.51 z-score.
`TTAGGTTTCGGTTTTCGGTTAGTGCTA` — result for “fitted relative affinity”: 9.74 z-score.
For `TCAGTTCCTTATTTAAGACTGTGCTAG`, “fitted relative affinity” read 3.32 z-score.
`TTAGTACTGCTTTTCCTTTAGTGCTAG`: “fitted relative affinity” 1.42 z-score.
`TCATCTCTCCCATTCTGACTGTGCTAG`: “fitted relative affinity” 2 z-score.
Under “fitted relative affinity”, `TTAAGTTTCGACACTGGGTTAGTGCTA` is recorded as 2.84 z-score.
For `GACGATATCAAACTGGAGACGTGCTAG`, “fitted relative affinity” read 0.122 z-score.

Set 2 — effect on: enzyme activity; action: inhibitor; tested at: 0.5 µM; relative to: control
SMILES: NC(=O)c1ccc(-c2nc(-c3ccc4c(c3)OCCO4)c(-c3ccccn3)[nH]2)cc1
For Cyclin-dependent kinase 1, with cyclin A (CDK1, Homo sapiens, UniProt P06493): remaining activity read 97.1%.
The remaining activity was 95.9% (AKT2 (Homo sapiens, UniProt P31751)).
The remaining activity was 95.9% (PLK3 (Homo sapiens, UniProt Q9H4B4)).

Set 3 — method: aptamer microarray, sandwich; molecule type: DNA with 2'F-ANA; matrix: in vitro; tested at: 200 nM; with: Cy3 exosite-II aptamer, 400 nM; reading: higher = stronger binding; strand: GGTTGGTGTGGTTGG
Target: Prothrombin, mature alpha-thrombin (F2, Homo sapiens, UniProt P00734)
Notes: whole 15-mer aptamer, many near background
`2'F-ANA at 5 6 11 13 14` — result for “mean fluorescence intensity”: 45 a.u.
`2'F-ANA at 3 9 11 14`: “mean fluorescence intensity” 637 a.u.
Under “mean fluorescence intensity”, `2'F-ANA at 1 2 3 5 6 8 9 10 12 13 15` is recorded as 48.8 a.u.
For `2'F-ANA at 1 2 3 5 6 7 8 11 12 15`, “mean fluorescence intensity” read 98.5 a.u.
Under “mean fluorescence intensity”, `2'F-ANA at 4 6 7 8 10 11 12 13 14` is recorded as 81 a.u.
`2'F-ANA at 1 2 3 4 5 7 8 10 12 13 14`: “mean fluorescence intensity” 50.7 a.u.
Under “mean fluorescence intensity”, `2'F-ANA at 2 3 4 6 7 11 12 13 14 15` is recorded as 236 a.u.
`2'F-ANA at 1 5 6 8 9 11 13 14 15`: “mean fluorescence intensity” 47.9 a.u.

Further values, each from its own experiment
Under cross-linked residues, `Putative uncharacterized protein FLJ42384 (Homo sapiens, UniProt Q6ZVL8)` is recorded as “M1 to I2” (ANKRD13B (Homo sapiens, UniProt Q86YJ7); cross-linking MS; cells; with: BSPNO).
For CC1=C(C#N)C(c2ccc3c(c2)c(NC(=O)c2ccccc2C)nn3C)C(C#N)=C(C)N1, the inhibition was 0.04% (HTR5A (Homo sapiens, UniProt P47898); ligand displacement; 10 µM).
